Published values pooled from the literature.
A part holds a random share of what one study measured.

Block 1
Target: Histone acetyltransferase KAT6A, winged helix 2, GST fusion (KAT6A, Homo sapiens, UniProt Q92794, residues 85-181)
Method: protein binding microarray
Molecule type: double-stranded DNA, one strand shown
Medium: in vitro
Concentration: not given
Notes: 8-mer, flanks averaged, mean of 2 arrays, mostly near background
Relative to: not given
Reading: higher = stronger binding
Construct (chain): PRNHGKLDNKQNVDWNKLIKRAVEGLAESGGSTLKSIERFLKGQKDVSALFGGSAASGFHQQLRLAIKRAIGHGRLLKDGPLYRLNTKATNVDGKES
| Strand | E-score |
| --- | --- |
| CGCACCAG | 0.271 |
| GTTGCTCA | 0.117 |
| ATAGAACC | -0.155 |
| CAGGGGCA | 0.068 |
| GCGGTAGC | 0.116 |
| TCACGTAA | -0.221 |
| ATAAGCGC | -0.0677 |
| GCTGGCAA | 0.14 |
| CGAGTACC | 0.0301 |
| GTGTACAC | 0.0315 |
| CGTTCTTA | 0.0525 |
| CGTTCTAG | -0.0691 |
| GCTGGCCA | -0.00898 |
| CTTGCGAA | 0.162 |
| GACATAGC | 0.0567 |
| CCTAGAAA | -0.158 |

Block 2
Target: RING finger protein unkempt homolog, zinc fingers 1-6, GST-SBP tag (UNK, Homo sapiens, UniProt Q9C0B0, residues 30-357)
Method: RNA Bind-n-Seq
Molecule type: RNA
Medium: in vitro
Concentration: not given
Notes: RNA with constant flanks, human and mouse sites, ends assumed
Relative to: input RNA pool
Reading: higher = stronger binding
All sequences stand within: GGGAGUUCUACAGUCCGACGAUC … CAACAGAGGAUUGAGCAUCA
Construct (chain): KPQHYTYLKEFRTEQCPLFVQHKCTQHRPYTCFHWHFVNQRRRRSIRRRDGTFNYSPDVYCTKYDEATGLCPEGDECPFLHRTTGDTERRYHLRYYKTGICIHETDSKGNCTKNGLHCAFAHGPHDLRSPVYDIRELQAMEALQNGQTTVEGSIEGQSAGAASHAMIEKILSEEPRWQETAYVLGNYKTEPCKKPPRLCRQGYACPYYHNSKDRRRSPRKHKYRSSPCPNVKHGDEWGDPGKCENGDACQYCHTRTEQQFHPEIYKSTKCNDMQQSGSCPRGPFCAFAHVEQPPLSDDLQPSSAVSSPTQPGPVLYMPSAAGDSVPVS
| Strand | bound/input enrichment |
| --- | --- |
| GUUCUUACCACUUCUCUUCCUCCUCACCCCAGAUACUUCCUCUUCCCCACAACCAAUGUACAUAGUAAUUGUAAUGUUUUAGACUUGACAGAAACUUUCCUGUAUUCUGUAUAUAAAAAC | 3.34 ratio |
| GGUGUAUCUAACUGGUGCACAAAUUACAUCAGGAUCAAUCAUGAUUUCUUAAAGUCUGGAUAGCUGAUCCAAACCAACUAGGUACUUCCAUACGUAUAUGGAAUGGAAUGUGGUGUCCUU | 0.434 ratio |
| UCGGAGGGCAGUGGCGGGAGCACUACUGGUUGGCGCGCUCGGGAGGAGCAGCCGCCGUCGGUGGCCGAGGGCUACGCCUCGCAGGACGUGUUCAGCGCCACCGAGACCAGUCUAUGGUAC | 0.177 ratio |
| GGAAAGUAUGUGUAUGUAGUAACAGAACUUAUGAAAGGAGGUGAAUUGCUGGAUAAAAUUCUUAGACAAAAAUUUUUCUCUGAACGAGAGGCCAGUGCUGUCCUGUUCACUAUAACUAAA | 0.636 ratio |
| UUCCCCAAUCGCUUUUCCAGCCGUCCAAUAACUGGACCUCACAUUGCAUACACAGAGGCUGUCAGCGAUACUCAGAUCAUGCUAAAGUGGACGUACAUUCCAUCAAGUAACAAUAACACU | 0.221 ratio |
| GAACCUCACUUUGUGGUAGUCCACUGCACAGGCUACAUCAAGGCCUGGCCACCAGCAGGUGUCUCCCUCCCAGAUGAUGACCCAGAGGCUGGCCAGGGGAGCAAAUUCUGCCUAGUGGCC | 0.21 ratio |
| AAGUCUGUACCGCACGGGAAAUGUUCACGCGCCUGGCCGUGUGCAUGGCCUCCCGGGCUGUGGGCAGCCGCAUCUGUGAGGUGACUCGUGAAAGUAGGUGAUUCCUUUGCAGAACUUCAG | 0.0763 ratio |
| UUGUUUAUGGGAGAUUAUGUUGACAGAGGAUAUUAUUCAGUUGAAACAGUUACACUGCUUGUAGCUCUUAAGGUUCGUUACCGUGAACGCAUCACCAUUCUUCGAGGGAAUCAUGAGAGC | 0.201 ratio |
| GCUUCGGUGCUGAUGGGUCUUGUUCUUAUCUGCGUCUGCUCGAAAACCCAUAGCUUGAAAGGCCUGGCCAGGGGAGGAGCACAGAUAUUUUCCUGUAUAAUUCCAGAAUGUCUUCAGAGA | 0.149 ratio |
| UGAUUAUUUCAGCCAAGGAACUGAGCAAGCAGGGGCACCGGAGGAGGGCUAUCCCUGCAUCUGCUAAGGCAAGAAUAAUGCCUCUACAUCUGCAAGUCUGAACAAGCAUGGGAUUUGAAU | 0.242 ratio |
| UACAGAUAGUACCAUUAAGAUGAGUUUUCAGGGGUCUAGGGAAGUUAAGGGUGGGAGGGUAUUAGGUAAGGGAGAUAGACGUUUAGAGAUGUGUUAAGUUAGAAAUCAGAUUGAUGCAAG | 56.8 ratio |

Block 3
Target: RNA binding protein fox-1 homolog 2, RRM domain, GST-SBP tag (RBFOX2, Homo sapiens, UniProt O43251-10, residues 100-194)
Method: RNA Bind-n-Seq
Molecule type: RNA
Medium: in vitro
Concentration: 365 nM
Notes: natural RNA segment, single round, ends assumed
Relative to: no-protein control
Reading: higher = stronger binding
All sequences stand within: GGGAGUUCUACAGUCCGACGAUC … UGGAAUUCUCGGGUGCCAA
Residues (chain): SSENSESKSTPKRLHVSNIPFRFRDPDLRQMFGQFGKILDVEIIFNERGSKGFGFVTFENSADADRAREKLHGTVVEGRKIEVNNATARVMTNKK
| Strand | RBNS enrichment (R) |
| --- | --- |
| CAGGUGGUAGCUAGGGACCGUCCAUCAGUGGUCCUUCCCUCCACCGCCACGCCAGCUCCUGGGUCGUUUUCAUUUAUCUGGCAGAGCCCAGGACCCUUAGAAUCAUAUUU | 0.381 |
| CUGUUAUUUAUCCCUCAUUCAUCCAUCCGUUCAUUCAUUCAGCCUUCAAUCAACAUCUCUUGAGUGUCUAUUAUGUACAGGACAUGUACUGAGACAAAAAGGAAACAUAA | 0.375 |
| UGAUUCAGAUGAAUUCAUGUAAAAGGAGAAAAGGAGAAAAGGACCUUUGAAAGAUGUGAAUGUAGAGACAAUUGCAGACCUUUUGGUUUCAUCUGUGUUCUGAAAUAUAA | 0.685 |
| UUUGUAAAUGUCUUAUUUGUGUAAUAAAGUUAAUGCAAGUAGAAGUGCUGGCACUGAAAUCCAGAACUGAUGGGAUUCCAUUUCUUUCCUGCUCUCUGGUGAAGGGCUUA | 0.412 |
| UAACUCUCAUUUGACAAGCAGAGAAAGAAAAGUUAAAUACCAGAUAAGCUUUUGAUUUUUGUAUUGUUUGCAUCCCCUUGCCCUCAAUAAAUAAAGUUCUUUUUUAGUUC | 4.54 |
| UGCUGCUCAACUCCACGCUCACUGCCUCUGAGUGGCCCGGCCAGGGGAGGGACAGAUGAUUCUGUGAUGGCAUGGGUAGUGGGUAGUGACAGCCAUGUCUGCGACGAUCA | 0.948 |
| CAUUUAGGCAUGAGCUCUUGGCAGGAGUGGGCUCUGAGCAGGUGUCAUAUUCAUUCUUUACAAACCAUAGAGAAAUAAUUUCAUCCCCCAACUGUAGUAAUUGUUACAAU | 0.85 |
| AUUUUGUGCAGUUAAUACUUAACAUUGAUUUAUUUUUUAAUCAUUUAAAUAUUAAUCAACUUUCCUUAAAAUAAAUAGCCUCUUAGGUAAAAAUAUAAGAACUUGAUAUA | 0.716 |
| CGUUAGCAGAUGGCCAUUCUGGUCAGCUCCCUGCCAGGUCAUAGGGUCACAUACCGUCAACUUCACCUCCUGGCUGCUUAAGACUAGUUCUACUCCCCCCUCAUAACUAU | 0.439 |
| CCCCAGACUCAUGGGUGUACAUCAAGAUGCCCAACAGAGGAACUCUUUCUUUCUAACCUUGUUCAGAUUGAGGUGAAAAGUCCAUCUUGCUGAUUUGAUGAUUGAAAUGU | 0.358 |
| UCCUCAUGUGUGCAUGUGUGCCAGAGCGCCAGGCAGGGUGGUUGCCUCAUCACCUCAUGGCCAAUUUGCACUUUGCCAGACUGGAUGGAAUAGAGAAGGGUCCUGUGGAG | 1.57 |
| CUGUUUCGAAUGGAAGCUUUCUCAGCAGACAAUGUGUGCACAGUAAACUUCAGCAGAGUCCACUUGUUCUCCCGGAAGCUUAAUGUAAUUGAAUGGCAGUUAUCACUAAA | 1.45 |

Block 4
Target: Sal-like protein 4, full length isoform A (SALL4, Homo sapiens, UniProt Q9UJQ4, residues 1-1053)
Chain of UniProt Q9UJQ4 (whole entry, looked up): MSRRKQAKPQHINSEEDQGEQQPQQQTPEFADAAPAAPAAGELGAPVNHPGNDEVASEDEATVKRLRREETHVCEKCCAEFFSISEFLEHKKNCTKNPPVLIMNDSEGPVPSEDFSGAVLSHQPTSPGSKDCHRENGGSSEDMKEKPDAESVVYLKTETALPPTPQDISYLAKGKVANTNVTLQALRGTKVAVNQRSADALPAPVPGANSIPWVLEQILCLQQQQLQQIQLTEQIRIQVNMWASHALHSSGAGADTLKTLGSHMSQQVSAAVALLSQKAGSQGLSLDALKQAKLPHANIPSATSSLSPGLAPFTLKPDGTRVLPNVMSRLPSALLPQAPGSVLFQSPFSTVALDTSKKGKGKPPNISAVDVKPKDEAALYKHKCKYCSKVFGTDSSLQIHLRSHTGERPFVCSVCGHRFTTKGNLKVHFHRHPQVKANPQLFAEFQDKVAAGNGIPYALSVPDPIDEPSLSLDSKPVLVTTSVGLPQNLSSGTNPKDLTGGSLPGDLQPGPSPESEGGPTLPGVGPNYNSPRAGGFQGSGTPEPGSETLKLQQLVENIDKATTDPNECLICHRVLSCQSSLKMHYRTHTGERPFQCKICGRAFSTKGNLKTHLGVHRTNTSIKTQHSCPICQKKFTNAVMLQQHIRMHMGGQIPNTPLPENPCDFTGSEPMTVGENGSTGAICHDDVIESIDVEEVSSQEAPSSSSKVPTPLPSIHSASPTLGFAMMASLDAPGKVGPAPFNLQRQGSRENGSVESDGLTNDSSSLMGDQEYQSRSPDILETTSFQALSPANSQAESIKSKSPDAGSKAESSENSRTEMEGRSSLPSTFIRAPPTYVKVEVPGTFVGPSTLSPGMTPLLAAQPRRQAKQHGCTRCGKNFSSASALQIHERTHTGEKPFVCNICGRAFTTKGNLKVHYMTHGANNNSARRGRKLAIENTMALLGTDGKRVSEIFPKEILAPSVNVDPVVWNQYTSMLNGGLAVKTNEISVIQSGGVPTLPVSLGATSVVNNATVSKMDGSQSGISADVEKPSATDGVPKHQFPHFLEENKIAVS
Method: universal PBM
Molecule type: double-stranded DNA, one strand shown
Medium: in vitro
Concentration: 600 nM
Notes: 8-mer, flanks averaged, mean of replicates
Reading: higher = stronger binding
| Strand | E-score |
| --- | --- |
| CACGATGC | -0.24 |
| GAGATTCC | -0.183 |
| ATGTCCGC | -0.1 |
| AACTATCG | 0.0387 |
| ACGGACCT | -0.306 |
| TTGATAAA | 0.297 |
| AGTGCGCG | -0.3 |
| CAGGTTGA | -0.144 |
| GTGGACGA | -0.149 |
| AAAAGCAG | -0.0898 |
| AATGATGT | 0.237 |
| AGTGTCAT | 0.202 |
| AATCCCGC | -0.122 |
| ATCGAGAG | -0.00195 |
| AACCCGAG | -0.241 |
| CCTTCCGA | 0.0285 |
| AGTGTCAA | 0.012 |
| AAGATTGT | 0.168 |
| AACCATGA | 0.103 |
| GGAACTTA | 0.0706 |

Block 5
Target: Interferon regulatory factor 7, full length, phosphomimetic (IRF7, Homo sapiens, UniProt Q92985, residues 1-503, S101K/S471D/S472D/S475D/S476D/S477D/S483D/S484D/S487D)
Method: protein-binding microarray
Molecule type: double-stranded DNA, one strand shown
Medium: in vitro
Concentration: 250 nM
Notes: 60-bp whole probe
Together with: salmon DNA 0.4 mg/ml
Relative to: random background probes
Reading: higher = stronger binding
All sequences stand within: GCCTAGCAC … GTCTTGATTCGCTTGACGCTGCTG
Construct (chain): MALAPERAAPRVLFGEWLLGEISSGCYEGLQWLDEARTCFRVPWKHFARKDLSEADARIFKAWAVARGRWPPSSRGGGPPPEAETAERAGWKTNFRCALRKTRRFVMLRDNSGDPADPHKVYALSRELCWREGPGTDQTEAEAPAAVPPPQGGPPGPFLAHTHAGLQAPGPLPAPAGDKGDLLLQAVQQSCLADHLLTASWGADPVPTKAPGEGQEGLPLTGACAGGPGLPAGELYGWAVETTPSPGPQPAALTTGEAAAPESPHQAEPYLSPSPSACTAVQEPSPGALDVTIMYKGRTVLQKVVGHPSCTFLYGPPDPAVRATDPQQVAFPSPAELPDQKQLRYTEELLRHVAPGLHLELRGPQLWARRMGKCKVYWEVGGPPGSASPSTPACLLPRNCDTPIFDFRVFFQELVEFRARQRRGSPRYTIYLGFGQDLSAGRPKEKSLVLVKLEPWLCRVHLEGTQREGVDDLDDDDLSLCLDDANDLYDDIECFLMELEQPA
| Strand | log fluorescence |
| --- | --- |
| TCAAGTTTAATATCTAAGACTGTGCTA | 0.0224 z-score |
| GACGGGCTGGGACTGGGGACGTGCTAG | -0.73 z-score |
| GACGGTTTCGGGTTCCGGGACGTGCTA | 11.7 z-score |
| GTCATTCTCAACCCTGGTGCTGTGCTA | 0.35 z-score |
| TTAGGTTTCGTTCTCGGTTAGTGCTAG | 10 z-score |
| CTTCATGTGCCTTTATATACGTGCTAG | -0.312 z-score |
| TTAGATTTTGGGTTTCGATTAGTGCTA | 6.26 z-score |
| TCATTTATGCACTCTTTAACTGTGCTA | 0.939 z-score |
| TCATATATCTGAACCGCACTGTGCTAG | 0.733 z-score |
| TTAGGTATCGGTATAGGTTAGTGCTAG | 1.16 z-score |
| TCAACTTCGGCCTCTAGGACTGTGCTA | -0.153 z-score |
| GACGATCTCAGACTGGACACGTGCTAG | -0.306 z-score |
| GACGATATCGACACTGGGGACGTGCTA | -0.239 z-score |
| TTAGAACTGGGGACGGGATTAGTGCTA | -0.0666 z-score |
| CTCATGTTACATTTATATCTGTGCTAG | 0.664 z-score |
| TCAATTTTCTGAATGCTACTGTGCTAG | 1.06 z-score |
| ATAGGTTTCGGTCTCGGTTAGTGCTAG | 8.62 z-score |
| TTAGGCCTCCTTCTCCTTTAGTGCTAG | 0.683 z-score |
| TTAGGTTTCGACACTGGCTTAGTGCTA | 3.55 z-score |
| ACTGATCACCGATTTCCTTCAGTGCTA | 0.139 z-score |
| GACGGTTTCGGGTATCCGGACGTGCTA | 7.95 z-score |
| TACGGTTTCCTTTCCCTGACGTGCTAG | 5.07 z-score |
| TTAGGTATCGCTCTCGGTTAGTGCTAG | 0.701 z-score |
| TATTATATATTTATGTATACGTGCTAG | 0.823 z-score |
| TCAGTTTCTGATATGGTACTGTGCTAG | 2.57 z-score |

For quick reference, copied from above (block 1):
| Strand | E-score |
| --- | --- |
| ATAGAACC | -0.155 |
| GTTGCTCA | 0.117 |
| GCTGGCCA | -0.00898 |
| CGTTCTAG | -0.0691 |
| GACATAGC | 0.0567 |
| CGCACCAG | 0.271 |
| GCGGTAGC | 0.116 |
| ATAAGCGC | -0.0677 |
| CGTTCTTA | 0.0525 |
| GTGTACAC | 0.0315 |
| CTTGCGAA | 0.162 |
